# Measurements gathered from unrelated publications.
# Each line is one published result; not all experiments were run side by side. ± marks the error that the study gave.
Structure (SMILES),assay,system,conditions,how to read,endpoint,result
N=C(N)NCCC[C@@H]1NC(=O)[C@H](CCCCNC(=O)CC[C@H](NC(=O)CCOCCOCCOCCOCCNC(=O)CN2CCN(CC(=O)O)CCN(CC(=O)O)CCN(CC(=O)O)CC2)C(=O)NCCCC[C@@H]2NC(=O)[C@@H](Cc3ccccc3)NC(=O)[C@H](CC(=O)O)NC(=O)CNC(=O)[C@H](CCCNC(=N)N)NC2=O)NC(=O)[C@@H](Cc2ccccc2)NC(=O)[C@H](CC(=O)O)NC(=O)CNC1=O [indium-111 labelled],,"athymic nude mice, female, U-87 MG glioma xenograft, tumour and kidney","intravenous, 1 h",reference: tumour over kidney,tumour to tissue ratio,1.11 ± 0.09
CC(C)C[C@H](NC(=O)[C@@H]1CCCN1C(=O)[C@H](CCCCN)NC(=O)[C@@H](N)CO)C(=O)N1CCC[C@H]1C(=O)N[C@@H](CCC(=O)O)C(=O)N[C@H](C(=O)N[C@H](C(=O)N[C@@H](CC(=O)O)C(=O)N[C@@H](CCC(=O)O)C(=O)N[C@@H](Cc1ccc(O)cc1)C(=O)N[C@@H](Cc1cn(CCOCCOCCOCCNC(=O)CCc2ccc(O)c(CN(CCN(CC(=O)O)Cc3cc(CCC(=O)NCCCC[C@H](NC(=O)N[C@@H](CCC(=O)O)C(=O)O)C(=O)O)ccc3O)CC(=O)O)c2)nn1)C(=O)O)[C@@H](C)O)C(C)C [gallium-68 labelled],,"NMRI nu/nu mice, LNCaP tumour, muscle","135.34 nmol/kg, low molar activity",,standardized uptake value,0.02 g/g
N=C(N)NCCC[C@@H]1NC(=O)[C@H](CCCCNC(=O)CNC(=O)CNC(=O)CNC(=O)CC[C@H](NC(=O)CCOCCOCCOCCOCCNC(=O)CC[C@H](NC(=O)CN2CCN(CC(=O)O)CCN(CC(=O)O)CCN(CC(=O)O)CC2)C(=O)NCCOCCOCCOCCOCCC(=O)N[C@@H](CCC(=O)NCC(=O)NCC(=O)NCC(=O)NCCCC[C@@H]2NC(=O)[C@@H](Cc3ccccc3)NC(=O)[C@H](CC(=O)O)NC(=O)CNC(=O)[C@H](CCCNC(=N)N)NC2=O)C(=O)NCC(=O)NCC(=O)NCC(=O)NCCCC[C@@H]2NC(=O)[C@@H](Cc3ccccc3)NC(=O)[C@H](CC(=O)O)NC(=O)CNC(=O)[C@H](CCCNC(=N)N)NC2=O)C(=O)NCC(=O)NCC(=O)NCC(=O)NCCCC[C@@H]2NC(=O)[C@@H](Cc3ccccc3)NC(=O)[C@H](CC(=O)O)NC(=O)CNC(=O)[C@H](CCCNC(=N)N)NC2=O)NC(=O)[C@@H](Cc2ccccc2)NC(=O)[C@H](CC(=O)O)NC(=O)CNC1=O [indium-111 labelled],,octanol/water,,,log P,-3.93 ± 0.09
CCCC[C@H](NC(=O)CNC(=O)CNC(=O)c1ccc(NN)nc1)C(=O)N[C@H]1CC(=O)NCCCC[C@@H](C(N)=O)NC(=O)[C@H](Cc2c[nH]c3ccccc23)NC(=O)[C@H](CCCNC(=N)N)NC(=O)[C@@H](Cc2ccccc2)NC(=O)[C@H](Cc2c[nH]cn2)NC1=O [technetium-99m labelled],,"C57 mouse, B16/F1 melanoma-bearing, blood","intravenous, 0.5 h",,tissue uptake,2.62 ± 0.09 %ID/g
CC[C@H]1c2cc3[nH]c4c(c3C)C(=O)[C@H](C(=O)OC)c4c3nc(cc4[nH]c(cc(n2)[C@@H]1C)c(C(C)=O)c4C)[C@@H](C)[C@@H]3CCC(=O)NCC(=O)N[C@H](CC(=O)O)C(=O)N[C@H](CCC(=O)O)C(=O)N[C@@H](C(=O)N[C@H](CC(=O)O)C(=O)NCC(=O)N[C@H](CO)C(=O)NCC(=O)N[C@H](CCCCN)C(N)=O)C(C)C,,nude mouse KB xenograft,"intravenous, 25 nmol, 5 h to 24 h",,change of tumour fluorescence,decreased
CC(=O)N[C@@H](CCCCN)C(=O)N[C@@H](CS)C(=O)N[C@@H](CS)C(=O)N[C@@H](Cc1ccc(O)cc1)C(=O)N[C@@H](CO)C(=O)N[C@@H](CC(C)C)C(=O)NCC(=O)NCC(=O)NCC(=O)N[C@@H](CO)C(=O)N[C@@H](CO)C(=O)N[C@@H](CCCCN)C(=O)N[C@@H](Cc1ccc(O)cc1)C(=O)N[C@@H](CCC(N)=O)C(=O)N[C@@H](CO)C(=O)N[C@@H](CC(C)C)C(=O)OCCN(c1ccccc1)C(C)c1cc(C)cn2c(=O)cc(N3CCOCC3)nc12 (some centres unmarked),,mouse serum 50%,"5 µM, 37 °C",,half-life,0.25 h
CCCC[C@H](NC(=O)CNC(=O)[C@H](CO)NC(=O)CNC(=O)c1ccc(NN)nc1)C(=O)N[C@H]1CC(=O)NCCCC[C@@H](C(N)=O)NC(=O)[C@H](Cc2c[nH]c3ccccc23)NC(=O)[C@H](CCCNC(=N)N)NC(=O)[C@@H](Cc2ccccc2)NC(=O)[C@H](Cc2c[nH]cn2)NC1=O [technetium-99m labelled],,"C57 mouse, B16/F1 melanoma",2 h,reference: tumour over skin,uptake ratio,34
CC[C@@]1(O)C(=O)OCc2c1cc1n(c2=O)Cc2cc3cc(OC(=O)CCCC(=O)NCC(=O)N[C@@H](Cc4ccccc4)C(=O)N[C@@H](Cc4ccccc4)C(=O)N[C@@H](Cc4ccc(O)cc4)C(=O)NCCSSCCNC(=O)CCC(=O)N[C@@H](CCC(=O)O)C(=O)N[C@@H](CCCNC(=N)N)C(=O)NCC(=O)N[C@@H](CC(=O)O)C(=O)O)ccc3nc2-1,TEM and AFM,PBS,"100 µM, pH 7.4, added: alkaline phosphatase 1 U/mL",,nanoparticle diameter,50 to 100 nm
N=C(N)NCCC[C@@H]1NC(=O)[C@H](CCCCNC(=O)CCOCCOCCOCCOCCNC(=O)CN2CCN(CC(=O)O)CCN(CC(=O)O)CCN(CC(=O)O)CC2)NC(=O)[C@@H](Cc2ccccc2)NC(=O)[C@H](CC(=O)O)NC(=O)CNC1=O [indium-111 labelled],,"athymic nude mice, female, U-87 MG glioma xenograft, tumour and blood","intravenous, 4 h",reference: tumour over blood,tumour to tissue ratio,8.75 ± 1.74
CCCC[C@@H](NC(=O)[C@H](Cc1c[nH]c2ccccc12)NC(=O)[C@@H](N)CSC1CC(=O)N(CC2CCC(C(=O)N[C@H]3C[C@H](O[C@H]4C[C@](O)(C(=O)CO)Cc5c(O)c6c(c(O)c54)C(=O)c4c(OC)cccc4C6=O)O[C@@H](C)[C@H]3O)CC2)C1=O)C(=O)N[C@@H](CCC(=O)O)C(=O)N[C@@H](C)C(=O)N[C@@H](C)C(=O)N[C@@H](Cc1ccc(O)cc1)C(=O)N[C@@H](CCC(N)=O)C(=O)N[C@H](CCCNC(=N)N)C(=O)N[C@@H](Cc1ccccc1)C(=O)N[C@@H](CC(C)C)C(N)=O (some centres unmarked),chemical stability,PBS,"100 µM, pH 5",,half-life,24 h
N=C(N)NCCC[C@@H]1NC(=O)[C@H](CCCCNC(=O)CC[C@H](NC(=O)CCOCCOCCOCCOCCNC(=O)CC[C@H](NC(=O)CN2CCN(CC(=O)O)CCN(CC(=O)O)CCN(CC(=O)O)CC2)C(=O)NCCOCCOCCOCCOCCC(=O)N[C@@H](CCC(=O)NCCCC[C@@H]2NC(=O)[C@@H](Cc3ccccc3)NC(=O)[C@H](CC(=O)O)NC(=O)CNC(=O)[C@H](CCCNC(=N)N)NC2=O)C(=O)NCCCC[C@@H]2NC(=O)[C@@H](Cc3ccccc3)NC(=O)[C@H](CC(=O)O)NC(=O)CNC(=O)[C@H](CCCNC(=N)N)NC2=O)C(=O)NCCCC[C@@H]2NC(=O)[C@@H](Cc3ccccc3)NC(=O)[C@H](CC(=O)O)NC(=O)CNC(=O)[C@H](CCCNC(=N)N)NC2=O)NC(=O)[C@@H](Cc2ccccc2)NC(=O)[C@H](CC(=O)O)NC(=O)CNC1=O [indium-111 labelled],,"athymic nude mice, female, U-87 MG glioma xenograft, tumour and kidney","intravenous, 0.5 h",reference: tumour over kidney,tumour to tissue ratio,1.46 ± 0.67
C[C@@H](O)[C@H](NC(=O)[C@@H]1CSSC[C@H](NC(=O)[C@@H](Cc2ccccc2)NC(=O)CN2CCCN3CCN(CCCN(CP(=O)(O)O)CC3)CC2)C(=O)N[C@@H](Cc2ccc(O)cc2)C(=O)N[C@H](Cc2c[nH]c3ccccc23)C(=O)N[C@@H](CCCCN)C(=O)N[C@@H]([C@@H](C)O)C(=O)N1)C(=O)O [copper-64 labelled],,"Lewis rat, male, tumour-bearing",24 h,reference: tumour over muscle,tumour-to-tissue ratio,112 ± 10
CC(C)C[C@@H]1NC(=O)[C@H](C(C)C)NC(=O)[C@H](CO)NC(=O)CNC(=O)CNC(=O)[C@H](CCCNC(=N)N)NC(=O)[C@@H]2CCCN2C(=O)[C@@H](NC(=O)CC[C@H](NC(=O)c2ccc(N(C)Cc3cnc4nc(N)nc(N)c4n3)cc2)C(=O)O)C(C)(C)SSC[C@@H](C(=O)O)NC(=O)CNC(=O)[C@H]([C@@H](C)O)NC(=O)[C@H](C(C)C)NC1=O,chemical stability,HCl solution,"100 µM, pH 1.0, 70 °C",,half-life,1.32 h
CSCC[C@H](NC(=O)[C@H](CC(C)C)NC(=O)[C@H](Cc1c[nH]cn1)NC(=O)CNC(=O)[C@@H](NC(=O)[C@H](C)NC(=O)[C@H](Cc1c[nH]c2ccccc12)NC(=O)[C@H](CCC(N)=O)NC(=O)CCCCCNC(=O)CNC(=O)CNC(=O)CNC(=O)CSC(C)=O)C(C)C)C(N)=O [technetium-99m labelled],,"Swiss mouse, muscle","intravenous, 18.5 MBq, 5 min",,tissue uptake,0.33 ± 0.05 %ID/g
C[C@H](NC(=O)CNC(=O)[C@H](CCC(=O)O)NC(=O)[C@H](CCC(=O)O)NC(=O)[C@H](CC(=O)O)NC(=O)[C@@H]1CCCN1C(=O)[C@H](Cc1ccccc1)NC(=O)[C@H](CS)NC(=O)[C@H](Cc1ccc(O)cc1)NC(=O)CCCNC(=O)CNC(=O)CNC(=O)[C@@H](C)NC(=O)CN)C(=O)N[C@@H](CS)C(=O)N[C@@H](Cc1ccc(O)cc1)C(N)=O [technetium-99m labelled],,"KM mice, blood","intravenous, dose not given, 60 min",reference: 1 min value,blood radioactivity remaining,3.42%
CCCC[C@H](NC(=O)CCCCCCCNC(=O)c1ccc(NN)nc1)C(=O)N[C@H]1CC(=O)NCCCC[C@@H](C(N)=O)NC(=O)[C@H](Cc2c[nH]c3ccccc23)NC(=O)[C@H](CCCNC(=N)N)NC(=O)[C@@H](Cc2ccccc2)NC(=O)[C@H](Cc2c[nH]cn2)NC1=O [technetium-99m labelled],,"C57 mouse, B16/F1 melanoma, lung","intravenous, 0.5 h",,uptake,4.06 ± 1.6 %ID/g
N=C(N)NCCC[C@@H]1NC(=O)[C@H](CCCCNC(=O)CCOCCOCCOCCOCCNC(=O)CC[C@H](NC(=O)CCOCCOCCOCCOCCNC(=O)CC[C@H](NC(=O)CN2CCN(CC(=O)O)CCN(CC(=O)O)CCN(CC(=O)O)CC2)C(=O)NCCOCCOCCOCCOCCC(=O)N[C@@H](CCC(=O)NCCOCCOCCOCCOCCC(=O)NCCCC[C@@H]2NC(=O)[C@@H](Cc3ccccc3)NC(=O)[C@H](CC(=O)O)NC(=O)CNC(=O)[C@H](CCCNC(=N)N)NC2=O)C(=O)NCCOCCOCCOCCOCCC(=O)NCCCC[C@@H]2NC(=O)[C@@H](Cc3ccccc3)NC(=O)[C@H](CC(=O)O)NC(=O)CNC(=O)[C@H](CCCNC(=N)N)NC2=O)C(=O)NCCOCCOCCOCCOCCC(=O)NCCCC[C@@H]2NC(=O)[C@@H](Cc3ccccc3)NC(=O)[C@H](CC(=O)O)NC(=O)CNC(=O)[C@H](CCCNC(=N)N)NC2=O)NC(=O)[C@@H](Cc2ccccc2)NC(=O)[C@H](CC(=O)O)NC(=O)CNC1=O [indium-111 labelled],,"athymic nude mice, female, U-87 MG glioma xenograft, tumour and lungs","intravenous, 1 h",reference: tumour over lungs,tumour to tissue ratio,3.13 ± 1.09

# Repeated from above:
Structure (SMILES),assay,system,conditions,how to read,endpoint,result
N=C(N)NCCC[C@@H]1NC(=O)[C@H](CCCCNC(=O)CC[C@H](NC(=O)CCOCCOCCOCCOCCNC(=O)CC[C@H](NC(=O)CN2CCN(CC(=O)O)CCN(CC(=O)O)CCN(CC(=O)O)CC2)C(=O)NCCOCCOCCOCCOCCC(=O)N[C@@H](CCC(=O)NCCCC[C@@H]2NC(=O)[C@@H](Cc3ccccc3)NC(=O)[C@H](CC(=O)O)NC(=O)CNC(=O)[C@H](CCCNC(=N)N)NC2=O)C(=O)NCCCC[C@@H]2NC(=O)[C@@H](Cc3ccccc3)NC(=O)[C@H](CC(=O)O)NC(=O)CNC(=O)[C@H](CCCNC(=N)N)NC2=O)C(=O)NCCCC[C@@H]2NC(=O)[C@@H](Cc3ccccc3)NC(=O)[C@H](CC(=O)O)NC(=O)CNC(=O)[C@H](CCCNC(=N)N)NC2=O)NC(=O)[C@@H](Cc2ccccc2)NC(=O)[C@H](CC(=O)O)NC(=O)CNC1=O [indium-111 labelled],,"athymic nude mice, female, U-87 MG glioma xenograft, tumour and kidney","intravenous, 0.5 h",reference: tumour over kidney,tumour to tissue ratio,1.46 ± 0.67
C[C@H](NC(=O)CNC(=O)[C@H](CCC(=O)O)NC(=O)[C@H](CCC(=O)O)NC(=O)[C@H](CC(=O)O)NC(=O)[C@@H]1CCCN1C(=O)[C@H](Cc1ccccc1)NC(=O)[C@H](CS)NC(=O)[C@H](Cc1ccc(O)cc1)NC(=O)CCCNC(=O)CNC(=O)CNC(=O)[C@@H](C)NC(=O)CN)C(=O)N[C@@H](CS)C(=O)N[C@@H](Cc1ccc(O)cc1)C(N)=O [technetium-99m labelled],,"KM mice, blood","intravenous, dose not given, 60 min",reference: 1 min value,blood radioactivity remaining,3.42%
CCCC[C@H](NC(=O)CNC(=O)CNC(=O)c1ccc(NN)nc1)C(=O)N[C@H]1CC(=O)NCCCC[C@@H](C(N)=O)NC(=O)[C@H](Cc2c[nH]c3ccccc23)NC(=O)[C@H](CCCNC(=N)N)NC(=O)[C@@H](Cc2ccccc2)NC(=O)[C@H](Cc2c[nH]cn2)NC1=O [technetium-99m labelled],,"C57 mouse, B16/F1 melanoma-bearing, blood","intravenous, 0.5 h",,tissue uptake,2.62 ± 0.09 %ID/g
